Measured values pooled from the literature.
Compare with care: the assays were run in different laboratories. ± gives the spread as reported. Values after ≈ are worked out from the molar mass of the structure shown.
Organism: Saccharomyces cerevisiae

For `CC1=NN(c2cccc(F)c2)C(=O)/C1=N\Nc1ccc(S(N)(=O)=O)cc1`, the glucose uptake was 39.6% (200 µg/mL).
With `Cc1ccc(S(=O)(=O)n2cc3c4c2C(=O)C(N)=CC4=NCC3)cc1` the inhibition was 72.8% (cell growth, liquid culture; BY4741; 100 µM, 24 h).
With `O=C(NCCN1CCCC1)c1ccc2cc(C(=O)c3cc(O)c(O)c(O)c3)oc2c1` the MIC was > 128 µg/mL (YPD medium; 30 °C).
With `COc1c(Br)cc(CCNC2=CC3=NCCc4c[nH]c(c43)C2=O)cc1Br` the inhibition was 20.1% (cell growth, liquid culture; BY4741; 100 µM, 24 h).
For `O=C(c1ccc(Cl)c([N+](=O)[O-])c1)N1CCN(c2ccccc2F)CC1`, the mature CPY was 82% (CPY trafficking; 4 µM).
`CC1=NN(c2ccccc2F)C(=O)/C1=N\Nc1ccc(S(N)(=O)=O)cc1` gave a glucose uptake of 39.964 ± 0.000791% (10 µg/mL).
The IC50 of `O=C(c1ccc(F)c([N+](=O)[O-])c1)N1CCN(c2ccccc2F)CC1` is reported as > 20 µM (microbial growth).
`COC1=CC2=NCCc3c[nH]c(c32)C1=O` has an inhibition of 17.9% (cell growth, liquid culture; BY4741; 100 µM, 24 h).
For `O=C(c1ccc(Cl)c([N+](=O)[O-])c1)N1CCN(c2ccc(F)cc2)CC1`, “cells with PM GFP-Snc1” read 4% (endocytic recycling; wild type; 20 µM, 2 h, 30 °C; relative to: cells).
With `O=C1C(NCCc2ccc(O)c(Br)c2)=CC2=NCCc3c[nH]c1c32` the inhibition was 13.6% (cell growth, liquid culture; BY4741; 100 µM, 24 h).
The Z-score of `COc1ccccc1N1CCN(C(=O)c2ccc(Cl)c([N+](=O)[O-])c2)CC1` is reported as 8.01 (growth; YML013C-A homozygous deletion; 35.5 µM; direction not given).
With `COc1ccc(NC(=O)COc2cccc(OCC(C)C)c2)cc1` the MIC50 was 0.5 µg/mL (≈ 1.52 µM) (microbial growth).
